Assay results collected from several papers.
Compare with care: the assays were run in different laboratories. Numbers after ± are the reported error.

Compound | cell line | read-out | method | time | setting | IC50 [µM]
O=C(/C=C/C=C/c1ccc([N+](=O)[O-])cc1)c1ccc(Cl)cc1 | Vero | cytotoxicity | MTT | 24 h | – | 696
O=S(=O)([O-])C(F)(F)F.OCc1ccnc(-c2cc(CO)ccn2)c1.[Ru+2].c1cc[cH-]c1.c1ccc(P(c2ccccc2)c2ccccc2)cc1 | HEK293 overexpressing BCRP | cell growth | MTT | 48 h | – | 19
CCC/C=C1\OC(=O)C2=C1CC[C@@H](O)[C@@H]2O | Hepa-1c1c7 | cytotoxicity | crystal violet | 48 h | – | > 20
CON=C(N)c1ccc(-c2ccc(-c3ccc(C(N)=NOC)cc3)o2)cc1 | HEK-293T | cell growth or viability | resazurin | – | – | 57.9
CC[C@@]12SS[C@]3(C(=O)N1C)[C@@H](O)[C@]1(C45c6ccccc6N[C@@H]4N4C(=O)[C@@]6(CC)SS[C@@]4(C(=O)N6C)[C@H]5O)c4ccccc4N[C@@H]1N3C2=O (stereo partly drawn) | MDA-MB-435 | cell growth or viability | SRB | – | – | 0.1
CC(C)=CCOc1c2occc2cc2ccc(=O)oc12 | NIH3T3 | cell growth or viability | MTT | 24 h | – | 92.4
CC[C@@]12SS[C@]3(C(=O)N1C)[C@@H](O)C1(C45c6ccccc6N[C@@H]4N4C(=O)[C@]6([C@@H](C)O)SS[C@]4(C(=O)N6C)[C@H]5O)c4ccccc4N[C@@H]1N3C2=O (stereo partly drawn) | MDA-MB-435 | cell growth or viability | SRB | – | – | 0.08
CN[C@H](C(=O)N[C@H](C(=O)N(C)[C@H](c1noc(=O)[nH]1)C(C)C)C(C)C)C(C)(C)c1ccccc1 | Jurkat | cell growth or viability | MTT | – | – | > 10
CC(C)OC(=O)[C@@H](N)Cc1ccc(OP2(=O)CO[C@@H](Cn3ccc(N)nc3=O)CO2)cc1 (mixture of isomers) | HFF | cytotoxicity | – | – | TFA salt | > 100
CCC/C=C1\OC(=O)C23C=CCCC12C1(OC(=O)c2ccccc21)C3CCC (stereo not drawn) | Hepa-1c1c7 | cytotoxicity | crystal violet | 48 h | – | > 20
CC(O)[C@@]12SS[C@]3(C(=O)N1C)[C@@H](O)[C@]1([C@@]45c6ccccc6N[C@@H]4N4C(=O)[C@]6(C)SS[C@]4(C(=O)N6C)[C@H]5O)c4ccccc4N[C@@H]1N3C2=O (stereo partly drawn) | MDA-MB-435 | cell growth or viability | SRB | – | – | 0.48
CCC/C=C1\OC(=O)C2=CC3CCC21[C@]1(OC(=O)c2ccccc21)[C@@H]3CCC (stereo partly drawn) | Hepa-1c1c7 | cytotoxicity | crystal violet | 48 h | – | 2.9 ± 0.1
CN1C(=O)[C@@]23C[C@]4([C@@]56c7ccccc7N[C@@H]5N5C(=O)[C@]7(C)SS[C@]5(C(=O)N7C)[C@H]6O)c5ccccc5N[C@@H]4N2C(=O)[C@]1(C)SS3 | SF-268 | cell growth or viability | SRB | – | – | 0.04
CC1(C)O[C@@H]1COc1c2occc2cc2ccc(=O)oc12 | NIH3T3 | cell growth or viability | MTT | 24 h | – | 70.9
CCCC(=O)N(C(=O)CCC)C1=C(Cl)C(=O)c2ccccc2C1=O | BALB/c 3T3 clone A31 | cytotoxicity | MTT | 48 h | – | 21.7 ± 1.45
